Measured values collected from several papers.
Lines come from different studies, so protocols differ. ± marks the error that the study gave.

SMILES = CC(C)C[C@H](NC(=O)[C@@H]1CCCN1C(=O)[C@H](CCCCN)NC(=O)[C@@H](N)CO)C(=O)N1CCC[C@H]1C(=O)N[C@@H](CCC(=O)O)C(=O)N[C@H](C(=O)N[C@H](C(=O)N[C@@H](CC(=O)O)C(=O)N[C@@H](CCC(=O)O)C(=O)N[C@@H](Cc1ccc(O)cc1)C(=O)N[C@@H](Cc1cn(CCOCCOCCOCCNC(=O)CCc2ccc(O)c(CN(CCN(CC(=O)O)Cc3cc(CCC(=O)NCCCC[C@H](NC(=O)N[C@@H](CCC(=O)O)C(=O)O)C(=O)O)ccc3O)CC(=O)O)c2)nn1)C(=O)O)[C@@H](C)O)C(C)C [gallium-68 labelled]; test system = NMRI nu/nu mice, LNCaP tumour, heart; conditions = 10 MBq, high molar activity; measurement = standardized uptake value; result = 0.12 g/g
SMILES = CC(C)C[C@@H]1NC(=O)[C@H](C(C)C)NC(=O)[C@H](CO)NC(=O)CNC(=O)CNC(=O)[C@H](CCCNC(=N)N)NC(=O)[C@@H]2CCCN2C(=O)[C@@H](NC(=O)CC[C@H](NC(=O)c2ccc(N(C)Cc3cnc4nc(N)nc(N)c4n3)cc2)C(=O)O)C(C)(C)SSC[C@@H](C(=O)O)NC(=O)CNC(=O)[C@H]([C@@H](C)O)NC(=O)[C@H](C(C)C)NC1=O; assay = HPLC; test system = NaOH buffer; conditions = pH 12.0, 70 °C; measurement = degradation rate constant; result = 0.074 h⁻¹
SMILES = CC(=O)N[C@@H](CCCCN)C(=O)N[C@@H](CS)C(=O)N[C@@H](CS)C(=O)N[C@@H](Cc1ccc(O)cc1)C(=O)N[C@@H](CO)C(=O)N[C@@H](CC(C)C)C(=O)NCC(=O)NCC(=O)NCC(=O)N[C@@H](CO)C(=O)N[C@@H](CO)C(=O)N[C@@H](CCCCN)C(=O)N[C@@H](Cc1ccc(O)cc1)C(=O)N[C@@H](CCC(N)=O)C(=O)N[C@@H](CO)C(=O)N[C@@H](CC(C)C)C(=O)OCCN(c1ccccc1)C(C)c1cc(C)cn2c(=O)cc(N3CCOCC3)nc12 (stereo partly shown); test system = PBS; conditions = 5 µM, 4 h, pH 7.5, 37 °C; measurement = degradation; result = 7%
SMILES = N=C(N)NCCC[C@@H]1NC(=O)[C@H](CCCCNC(=O)CC[C@H](NC(=O)CCOCCOCCOCCOCCNC(=O)CN2CCN(CC(=O)O)CCN(CC(=O)O)CCN(CC(=O)O)CC2)C(=O)NCCCC[C@@H]2NC(=O)[C@@H](Cc3ccccc3)NC(=O)[C@H](CC(=O)O)NC(=O)CNC(=O)[C@H](CCCNC(=N)N)NC2=O)NC(=O)[C@@H](Cc2ccccc2)NC(=O)[C@H](CC(=O)O)NC(=O)CNC1=O [indium-111 labelled]; test system = female athymic nude mice, brain; conditions = intravenous, 3 µCi, 72 h, U-87 MG glioma xenograft; measurement = tissue uptake; result = 0.03 ± 0.01 %ID/g
SMILES = CCCC[C@H](NC(=O)CNC(=O)CNC(=O)c1ccc(NN)nc1)C(=O)N[C@H]1CC(=O)NCCCC[C@@H](C(N)=O)NC(=O)[C@H](Cc2c[nH]c3ccccc23)NC(=O)[C@H](CCCNC(=N)N)NC(=O)[C@@H](Cc2ccccc2)NC(=O)[C@H](Cc2c[nH]cn2)NC1=O [technetium-99m labelled]; test system = C57 mouse, B16/F1 melanoma-bearing; conditions = intravenous, 2 h; how to read = baseline: tumour over skin; measurement = tissue uptake ratio; result = 42.9
SMILES = CSCC[C@H](NC(=O)[C@H](CC(C)C)NC(=O)[C@H](Cc1c[nH]cn1)NC(=O)CNC(=O)[C@@H](NC(=O)[C@H](C)NC(=O)[C@H](Cc1c[nH]c2ccccc12)NC(=O)[C@H](CCC(N)=O)NC(=O)[C@H](CC(N)=O)NC(=O)CNC(=O)[C@H](Cc1ccc(O)cc1)NC(=O)[C@H](CCCNC(=N)N)NC(=O)[C@H](CCC(N)=O)NC(=O)[C@@H]1CCCN1C(=O)CN1CCN(CC(=O)O)CCN(CC(=O)O)CCN(CC(=O)O)CC1)C(C)C)C(N)=O [indium-111 labelled]; assay = radio-HPLC; test system = male Swiss nu/nu mice, blood; conditions = intravenous, 1 nmol, 5 min; measurement = intact peptide; result = 21.2 ± 0.8%
SMILES = N=C(N)NCCC[C@@H]1NC(=O)[C@H](CCCCNC(=O)CCOCCOCCOCCOCCNC(=O)CN2CCN(CC(=O)O)CCN(CC(=O)O)CCN(CC(=O)O)CC2)NC(=O)[C@@H](Cc2ccccc2)NC(=O)[C@H](CC(=O)O)NC(=O)CNC1=O [indium-111 labelled]; test system = athymic nude mice, female, U-87 MG glioma xenograft, tumour and kidney; conditions = intravenous, 72 h; how to read = baseline: tumour over kidney; measurement = tumour to tissue ratio; result = 0.67 ± 0.15
SMILES = CCCC[C@H](NC(=O)CCCCCCCNC(=O)c1ccc(NN)nc1)C(=O)N[C@H]1CC(=O)NCCCC[C@@H](C(N)=O)NC(=O)[C@H](Cc2c[nH]c3ccccc23)NC(=O)[C@H](CCCNC(=N)N)NC(=O)[C@@H](Cc2ccccc2)NC(=O)[C@H](Cc2c[nH]cn2)NC1=O [technetium-99m labelled]; test system = C57 mouse, B16/F1 melanoma, stomach; conditions = intravenous, 0.5 h; measurement = uptake; result = 2.52 ± 0.22 %ID/g
SMILES = N=C(N)NCCC[C@@H]1NC(=O)[C@H](CCCCNC(=O)CC[C@H](NC(=O)CCOCCOCCOCCOCCNC(=O)CC[C@H](NC(=O)CN2CCN(CC(=O)O)CCN(CC(=O)O)CCN(CC(=O)O)CC2)C(=O)NCCOCCOCCOCCOCCC(=O)N[C@@H](CCC(=O)NCCCC[C@@H]2NC(=O)[C@@H](Cc3ccccc3)NC(=O)[C@H](CC(=O)O)NC(=O)CNC(=O)[C@H](CCCNC(=N)N)NC2=O)C(=O)NCCCC[C@@H]2NC(=O)[C@@H](Cc3ccccc3)NC(=O)[C@H](CC(=O)O)NC(=O)CNC(=O)[C@H](CCCNC(=N)N)NC2=O)C(=O)NCCCC[C@@H]2NC(=O)[C@@H](Cc3ccccc3)NC(=O)[C@H](CC(=O)O)NC(=O)CNC(=O)[C@H](CCCNC(=N)N)NC2=O)NC(=O)[C@@H](Cc2ccccc2)NC(=O)[C@H](CC(=O)O)NC(=O)CNC1=O [indium-111 labelled]; test system = athymic nude mice, female, U-87 MG glioma xenograft, U-87 MG tumour; conditions = intravenous, 3 µCi, 24 h; measurement = tissue uptake; result = 6.52 ± 3.85 %ID/g
SMILES = C/C=C(/C)C(=O)O[C@H]1C(C)=C2[C@H]([C@@H]1OC(=O)CCCCCCC)[C@@](C)(OC(C)=O)C[C@H](OC(=O)CCCCCCCCCCCNC(=O)[C@H](CO)NC(=O)[C@@H]1CCCN1C(=O)CNC(=O)[C@@H](NC(=O)[C@H](CCC(=O)O)NC(=O)CNC(=O)[C@H](CCCNC(=N)N)NC(=O)[C@@H](N)CCC(=O)O)[C@@H](C)O)[C@@]1(O)[C@H]2OC(=O)[C@@]1(C)O; test system = mouse, plasma; conditions = intravenous, dose not given, full-length prodrug; measurement = Cmax; result = 35 to 40 µM

Repeated from above:
SMILES = CC(C)C[C@H](NC(=O)[C@@H]1CCCN1C(=O)[C@H](CCCCN)NC(=O)[C@@H](N)CO)C(=O)N1CCC[C@H]1C(=O)N[C@@H](CCC(=O)O)C(=O)N[C@H](C(=O)N[C@H](C(=O)N[C@@H](CC(=O)O)C(=O)N[C@@H](CCC(=O)O)C(=O)N[C@@H](Cc1ccc(O)cc1)C(=O)N[C@@H](Cc1cn(CCOCCOCCOCCNC(=O)CCc2ccc(O)c(CN(CCN(CC(=O)O)Cc3cc(CCC(=O)NCCCC[C@H](NC(=O)N[C@@H](CCC(=O)O)C(=O)O)C(=O)O)ccc3O)CC(=O)O)c2)nn1)C(=O)O)[C@@H](C)O)C(C)C [gallium-68 labelled]; test system = NMRI nu/nu mice, LNCaP tumour, heart; conditions = 10 MBq, high molar activity; measurement = standardized uptake value; result = 0.12 g/g
